# Assay results pooled from the literature.
# Lines come from different studies, so protocols differ.
# Method: steady-state kinetics
# B1: HEM1 (Saccharomyces cerevisiae, UniProt P09950); chain AAAAANHSTQESGFDYEGLIDSELQKKRLDKSYRYFNNINRLAKEFPLAHRQREADKVTVWCSNDYLALSKHPEVLDAMHKTIDKYGCGAGGTRNIAGHNIPTLNLEAELATLHKKEGALVFSSCYVANDAVLSLLGQKMKDLVIFSDELNHASMIVGIKHANVKKHIFKHNDLNELEQLLQSYPKSVPKLIAFESVYSMAGSVADIEKICDLADKYGALTFLDEVHAVGLYGPHGAGVAEHCDFESHRASGIATPKTNDKGGAKTVMDRVDMITGTLGKSFGSVGGYVAASRKLIDWFRSFAPGFIFTTTLPPSVMAGATAAIRYQRCHIDLRTSQQKHTMYVKKAFHELGIPVIPNPSHIVPVLIGNADLAKQASDILINKHQIYVQAINFPTVARGTERLRITPTPGHTNDLSDILINAVDDVFNELQLPRVRDWESQGGLLGVGESGFVEESNLWTSSQLSLTNDDLNPNVRDPIVKQLEVSSGIKQ
# B2: Tcur_2987 Y332L (Thermomonospora curvata, UniProt D1A807); chain ACSEERAAGARPSATQTTGTATEPFHGPHQAGIATPPQAHAVFLGLDLRKGTGRKELGRLMRLLTDDARRLTQGRPALADPEPDLAPLPSRLTFTFGFGPGLFKAAGLEKQRPEGLRPLPPFKVDRLEDRWSGGDLLVQICCDDPITLAHALRMTVKDARAFTRVRWVQRGFRRSPGVQSSGATQRNLMGQLDGTVNPVPGTADFDQAVWVQDGPEWLRGGTTLVLRRIRMELEKWDEADPAGKEFAVGRRLTSGAPLTGRHEHDEPDFDAVDSAGFPVIAENAHIRLAHVDSPRLRMLRRPYNLDEGLTADGRSDAGLLFAAYQADIDRQFIPVQRRLDEGGDLLNLWTTPIGSAVFAIPPGCDENGWIGQGLLG
# B3: primase (Aquifex aeolicus, UniProt O67465); chain MSSDIDELRREIDIVDVISEYLNLEKVGSNYRTNCPFHPDDTPSFYVSPSKQIFKCFGCGVGGDAIKFVSLYEDISYFEAALELAKRYGKKLDLEKISKDEKVYVALDRVCDFYRESLLKNREASEYVKSRGIDPKVARKFDLGYAPSSEALVKVLKENDLLEAYLETKNLLSPTKGVYRDLFLRRVVIPIKDPRGRVIGFGGRRIVEDKSPKYINSPDSRVFKKGENLFGLYEAKEYIKEEGFAILVEGYFDLLRLFSEGIRNVVAPLGTALTQNQANLLSKFTKKVYILYDGDDAGRKAMKSAIPLLLSAGVEVYPVYLPEGYDPDEFIKEFGKEELRRLINSSGELFETLIKTARENLEEKTREFRYYLGFISDGVRRFALASEFHTKYKVPMEILLMKIEK
# B4: Tcur_2987 W263S (Thermomonospora curvata, UniProt D1A807); chain ACSEERAAGARPSATQTTGTATEPFHGPHQAGIATPPQAHAVFLGLDLRKGTGRKELGRLMRLLTDDARRLTQGRPALADPEPDLAPLPSRLTFTFGFGPGLFKAAGLEKQRPEGLRPLPPFKVDRLEDRWSGGDLLVQICCDDPITLAHALRMTVKDARAFTRVRWVQRGFRRSPGVQSSGATQRNLMGQLDGTVNPVPGTADFDQAVWVQDGPEWLRGGTTLVLRRIRMELEKSDEADPAGKEFAVGRRLTSGAPLTGRHEHDEPDFDAVDSAGFPVIAENAHIRLAHVDSPRLRMLRRPYNYDEGLTADGRSDAGLLFAAYQADIDRQFIPVQRRLDEGGDLLNLWTTPIGSAVFAIPPGCDENGWIGQGLLG
# B5: TRM10 D210A (Saccharomyces cerevisiae, UniProt Q12400); chain MSNDEINQNEEKVKRTPPLPPVPEGMSKKQWKKMCKRQRWEENKAKYNAERRVKKKRLRHERSAKIQEYIDRGEEVPQELIREPRINVNQTDSGIEIILDCSFDELMNDKEIVSLSNQVTRAYSANRRANHFAEIKVAPFDKRLKQRFETTLKNTNYENWNHFKFLPDDKIMFGDEHISKDKIVYLTADTEEKLEKLEPGMRYIVGGIVAKNRYKELCLKKAQKMGIPTRRLPIDEYINLEGRRVLTTTHVVQLMLKYFDDHNWKNAFESVLPPRKLDAEAKSASSSPAPKDT
# B6: TRM10 G206A/G207A (Saccharomyces cerevisiae, UniProt Q12400); chain MSNDEINQNEEKVKRTPPLPPVPEGMSKKQWKKMCKRQRWEENKAKYNAERRVKKKRLRHERSAKIQEYIDRGEEVPQELIREPRINVNQTDSGIEIILDCSFDELMNDKEIVSLSNQVTRAYSANRRANHFAEIKVAPFDKRLKQRFETTLKNTNYENWNHFKFLPDDKIMFGDEHISKDKIVYLTADTEEKLEKLEPGMRYIVAAIVDKNRYKELCLKKAQKMGIPTRRLPIDEYINLEGRRVLTTTHVVQLMLKYFDDHNWKNAFESVLPPRKLDAEAKSASSSPAPKDT
# B7: Tcur_2987 W376F (Thermomonospora curvata, UniProt D1A807); chain ACSEERAAGARPSATQTTGTATEPFHGPHQAGIATPPQAHAVFLGLDLRKGTGRKELGRLMRLLTDDARRLTQGRPALADPEPDLAPLPSRLTFTFGFGPGLFKAAGLEKQRPEGLRPLPPFKVDRLEDRWSGGDLLVQICCDDPITLAHALRMTVKDARAFTRVRWVQRGFRRSPGVQSSGATQRNLMGQLDGTVNPVPGTADFDQAVWVQDGPEWLRGGTTLVLRRIRMELEKWDEADPAGKEFAVGRRLTSGAPLTGRHEHDEPDFDAVDSAGFPVIAENAHIRLAHVDSPRLRMLRRPYNYDEGLTADGRSDAGLLFAAYQADIDRQFIPVQRRLDEGGDLLNLFTTPIGSAVFAIPPGCDENGWIGQGLLG
# B8: Tcur_2987 Y332F (Thermomonospora curvata, UniProt D1A807); chain ACSEERAAGARPSATQTTGTATEPFHGPHQAGIATPPQAHAVFLGLDLRKGTGRKELGRLMRLLTDDARRLTQGRPALADPEPDLAPLPSRLTFTFGFGPGLFKAAGLEKQRPEGLRPLPPFKVDRLEDRWSGGDLLVQICCDDPITLAHALRMTVKDARAFTRVRWVQRGFRRSPGVQSSGATQRNLMGQLDGTVNPVPGTADFDQAVWVQDGPEWLRGGTTLVLRRIRMELEKWDEADPAGKEFAVGRRLTSGAPLTGRHEHDEPDFDAVDSAGFPVIAENAHIRLAHVDSPRLRMLRRPYNFDEGLTADGRSDAGLLFAAYQADIDRQFIPVQRRLDEGGDLLNLWTTPIGSAVFAIPPGCDENGWIGQGLLG
# Chain of UniProt P21777 (whole entry, looked up): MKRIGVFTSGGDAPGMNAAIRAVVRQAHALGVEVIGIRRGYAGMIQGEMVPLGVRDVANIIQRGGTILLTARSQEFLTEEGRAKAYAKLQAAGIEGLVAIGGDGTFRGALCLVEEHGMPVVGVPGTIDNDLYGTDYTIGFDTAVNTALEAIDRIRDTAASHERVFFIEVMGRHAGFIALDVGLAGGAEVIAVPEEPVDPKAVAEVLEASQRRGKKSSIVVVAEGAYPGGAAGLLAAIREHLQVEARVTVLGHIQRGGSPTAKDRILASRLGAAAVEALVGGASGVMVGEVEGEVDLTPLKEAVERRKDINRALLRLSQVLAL
# Chain of UniProt Q18B70 (whole entry, looked up): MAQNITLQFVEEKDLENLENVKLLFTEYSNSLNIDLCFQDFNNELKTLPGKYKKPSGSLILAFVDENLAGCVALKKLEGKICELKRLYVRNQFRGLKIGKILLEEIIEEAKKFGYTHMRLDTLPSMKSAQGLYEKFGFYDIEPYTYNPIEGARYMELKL
# Chain of UniProt Q6QT07 (whole entry, looked up): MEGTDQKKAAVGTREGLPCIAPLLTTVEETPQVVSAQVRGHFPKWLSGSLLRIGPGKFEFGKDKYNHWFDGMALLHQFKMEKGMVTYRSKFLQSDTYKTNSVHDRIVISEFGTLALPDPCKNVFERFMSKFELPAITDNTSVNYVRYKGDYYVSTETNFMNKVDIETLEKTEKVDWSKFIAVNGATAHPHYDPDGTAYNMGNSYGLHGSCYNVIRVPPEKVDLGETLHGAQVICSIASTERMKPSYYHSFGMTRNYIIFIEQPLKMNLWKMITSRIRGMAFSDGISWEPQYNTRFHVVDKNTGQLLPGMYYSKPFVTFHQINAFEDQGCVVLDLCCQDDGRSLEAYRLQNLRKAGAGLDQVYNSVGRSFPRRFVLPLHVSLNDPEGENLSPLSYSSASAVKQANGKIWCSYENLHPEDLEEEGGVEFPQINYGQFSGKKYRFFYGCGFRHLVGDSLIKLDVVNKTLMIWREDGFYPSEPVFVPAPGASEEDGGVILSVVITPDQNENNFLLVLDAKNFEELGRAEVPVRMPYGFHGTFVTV
# Chain of UniProt P10632 (whole entry, looked up): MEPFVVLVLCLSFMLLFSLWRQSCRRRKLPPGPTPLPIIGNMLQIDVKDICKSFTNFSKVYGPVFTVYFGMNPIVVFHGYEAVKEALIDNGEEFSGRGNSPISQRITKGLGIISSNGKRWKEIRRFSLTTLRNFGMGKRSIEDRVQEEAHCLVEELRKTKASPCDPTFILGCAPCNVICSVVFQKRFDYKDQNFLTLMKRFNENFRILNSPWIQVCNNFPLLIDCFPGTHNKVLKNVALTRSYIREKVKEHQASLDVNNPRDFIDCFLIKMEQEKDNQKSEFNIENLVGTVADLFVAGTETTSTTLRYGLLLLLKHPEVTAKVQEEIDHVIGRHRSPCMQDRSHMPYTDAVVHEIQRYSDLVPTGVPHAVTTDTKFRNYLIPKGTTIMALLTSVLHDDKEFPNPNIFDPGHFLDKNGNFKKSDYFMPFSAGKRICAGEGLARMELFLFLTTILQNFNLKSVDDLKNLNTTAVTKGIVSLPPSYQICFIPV
Molecule,substrate,matrix,pH,temperature,setting,with,K0.5 [µM]
"CYP2C19 (Homo sapiens, UniProt P33261)",COc1cc2c(cc1CC=C(C)C)C(=O)C[C@@H](c1ccc(O)cc1)O2,,pH 7.4,37 °C,,,1.1
B1 (HEM1),CC(C)(COP(=O)(O)OP(=O)(O)OC[C@H]1O[C@@H](n2cnc3c(N)ncnc32)[C@H](O)[C@@H]1OP(=O)(O)O)[C@@H](O)C(=O)NCCC(=O)NCCSC(=O)CCC(=O)O,,pH 7.4,30 °C,,,26
"protein (Pseudoalteromonas luteoviolacea, UniProt A0A161XU12)",NCC(=O)O,,pH 7.5,30 °C,positive cooperativity,,187
B2 (Tcur_2987 Y332L),Nc1c(S(=O)(=O)O)cc(Nc2cccc(S(=O)(=O)CCOS(=O)(=O)O)c2)c2c1C(=O)c1ccccc1C2=O,,pH 3,,sigmoidal kinetics,H2O2 1 mM,37
"CYP2C8 (Homo sapiens, UniProt P10632)",COc1cc2c(cc1CC=C(C)C)C(=O)C[C@@H](c1ccc(O)cc1)O2,,pH 7.4,37 °C,,,1.2
B3 (primase),Nc1ccn([C@@H]2O[C@H](COP(=O)(O)OP(=O)(O)OP(=O)(O)O)[C@@H](O)[C@H]2O)c(=O)n1,,pH 7.5,55 °C,,magnesium acetate 10 mM,16
enzyme (UniProt A0A0C2CTX7),Br,,,28 °C,,,1000
B4 (Tcur_2987 W263S),Nc1c(S(=O)(=O)O)cc(Nc2cccc(S(=O)(=O)CCOS(=O)(=O)O)c2)c2c1C(=O)c1ccccc1C2=O,,pH 3,,sigmoidal kinetics,H2O2 1 mM,32
B5 (TRM10 D210A),C[S+](CC[C@H](N)C(=O)O)C[C@H]1O[C@@H](n2cnc3c(N)ncnc32)[C@H](O)[C@@H]1O,,pH 8,30 °C,,,4.3
"speG (Vibrio cholerae, UniProt Q9KL03)",NCCCCNCCCN,,pH 9,37 °C,,,1320
"protein (Sinorhizobium meliloti, UniProt Q92LZ4)",O=C(O)C(=O)CO,,pH 7.5,25 °C,NaCl 150 mM,NADPH 0.4 mM,6140
B6 (TRM10 G206A/G207A),C[S+](CC[C@H](N)C(=O)O)C[C@H]1O[C@@H](n2cnc3c(N)ncnc32)[C@H](O)[C@@H]1O,,pH 8,30 °C,,,77.6
B7 (Tcur_2987 W376F),Nc1c(S(=O)(=O)O)cc(Nc2cccc(S(=O)(=O)CCOS(=O)(=O)O)c2)c2c1C(=O)c1ccccc1C2=O,,pH 3,,sigmoidal kinetics,H2O2 1 mM,49
"pfkA (Thermus thermophilus, UniProt P21777)",Nc1ncnc2c1ncn2[C@@H]1O[C@H](COP(=O)(O)OP(=O)(O)OP(=O)(O)O)[C@@H](O)[C@H]1O,,pH 8,25 °C,Hill fit,"Fru-6-P 5 mM, MgCl2 5 mM",6
"BCO2 (Mustela putorius furo, UniProt Q6QT07)",CC1=C[C@H](O)CC(C)(C)[C@H]1/C=C/C(C)=C/C=C/C(C)=C/C=C/C=C(C)/C=C/C=C(C)/C=C/C1=C(C)C[C@@H](O)CC1(C)C,crude Sf9 lysate,pH 8.5,37 °C,"apparent, not purified","FeSO4 10 µM, NAD+ 3 mM",49.6
B8 (Tcur_2987 Y332F),Nc1c(S(=O)(=O)O)cc(Nc2cccc(S(=O)(=O)CCOS(=O)(=O)O)c2)c2c1C(=O)c1ccccc1C2=O,,pH 3,,sigmoidal kinetics,H2O2 1 mM,34
"protein (Sinorhizobium meliloti, UniProt Q92T34)",O=CC(=O)O,,pH 7.5,25 °C,NaCl 150 mM,NADPH 0.4 mM,12300
"protein (Clostridioides difficile, UniProt Q18B70)",CC(=O)SCCNC(=O)CCNC(=O)[C@H](O)C(C)(C)COP(=O)(O)OP(=O)(O)OC[C@H]1O[C@@H](n2cnc3c(N)ncnc32)[C@H](O)[C@@H]1OP(=O)(O)O,,pH 8,37 °C,,"L-Thr 10 mM, AcCoA 0-2 mM",248

# Excerpt of the above:
Molecule,substrate,matrix,pH,temperature,setting,with,K0.5 [µM]
"protein (Pseudoalteromonas luteoviolacea, UniProt A0A161XU12)",NCC(=O)O,,pH 7.5,30 °C,positive cooperativity,,187
B2 (Tcur_2987 Y332L),Nc1c(S(=O)(=O)O)cc(Nc2cccc(S(=O)(=O)CCOS(=O)(=O)O)c2)c2c1C(=O)c1ccccc1C2=O,,pH 3,,sigmoidal kinetics,H2O2 1 mM,37
"protein (Clostridioides difficile, UniProt Q18B70)",CC(=O)SCCNC(=O)CCNC(=O)[C@H](O)C(C)(C)COP(=O)(O)OP(=O)(O)OC[C@H]1O[C@@H](n2cnc3c(N)ncnc32)[C@H](O)[C@@H]1OP(=O)(O)O,,pH 8,37 °C,,"L-Thr 10 mM, AcCoA 0-2 mM",248
